Results of several laboratories.
Protocols differ between the studies behind these lines.
Cell line: SK-OV-3

SMILES	test	conditions	how to read	quantity	result
Cc1ccc2nc(Cl)c(-c3nc4cc(C)c(C)cc4[nH]3)cc2c1	cell growth or viability, MTT	48 h		IC50	> 100 µM
CC(=C(c1ccc(O)cc1)c1ccc(Cl)cc1)c1ccc(Cl)cc1	cell growth or viability			GI50	1.04 µM
CC/C=C\C/C=C\C/C=C\C/C=C\C/C=C\C/C=C\CCC(=O)Nc1ccn(C2OC(CO)C(O)C2(F)F)c(=O)n1 (stereo not drawn)	NCI60 screen			TGI	14.2 µM
Cc1ccc2nc(Cl)c(-c3nc4cc(Cl)ccc4[nH]3)cc2c1	cell growth or viability, MTT	48 h		IC50	> 100 µM
CC(=O)OC[C@H]1O[C@@H](Sc2sc(C(=O)c3ccc(C)cc3)c(N)c2-c2nc3ccccc3s2)[C@H](OC(C)=O)[C@@H](OC(C)=O)[C@@H]1OC(C)=O	SRB	10 µM, 48 h	baseline: untreated	growth	89.9%
Cc1cccc(O)c1C(=O)OCC1(O)C(Nc2cccc3ccccc23)C(N)C(NC(=O)N(C)C)(C(C)O)C1(C)O (stereo not drawn)	cell growth or viability			EC50	2.44 µM
CC(=O)OC[C@H]1O[C@@H](Sc2sc(C(=O)c3ccc(Br)cc3)c(N)c2-c2nc3ccccc3s2)[C@H](OC(C)=O)[C@@H](OC(C)=O)[C@@H]1OC(C)=O	SRB	10 µM, 48 h	baseline: untreated	growth	96.6%
CC(Cc1ccc(Cl)cc1)=C(c1ccc(Cl)cc1)c1ccc(OCCN(C)C)cc1	cell growth or viability			GI50	5.42 µM
COc1ccc(CC2COC(=O)C2Cc2ccc3c(c2)OCO3)cc1OC (mixture of isomers)	MTT	concentration not given, 72 h		viability	decreased
CC(=O)c1cccc(NC2C(N)C(NC(=O)N(C)C)(C(C)O)C(O)C2(O)COC(=O)c2c(C)cccc2O)c1 (stereo not drawn)	cell growth or viability			EC50	0.007 µM
CN[C@@H](C)C(=O)N[C@H]1CN(C(=O)Cc2ccccc2)CC[C@H]2CC[C@@H](C(=O)NCc3ccc(C(F)(F)F)cc3)N2C1=O	caspase-8, caspase-3, PARP cleavage, western blot	24 h		onset concentration	≥ 1 µM
CC(C)(C)c1cc2c(O)c(c1)Cc1cc(C(C)(C)C)cc(c1OCC(=O)Nc1cccc3ncccc13)Cc1cc(C(C)(C)C)cc(c1O)Cc1cc(C(C)(C)C)cc(c1OCC(=O)Nc1cccc3ncccc13)COC2	cell growth or viability, MTT	15 µM, 72 h		inhibition	50%
Clc1cc2nc(-c3cc4cc5c(cc4nc3Cl)OCO5)[nH]c2cc1Cl	cell growth or viability, MTT	48 h		IC50	> 100 µM
CC(C)(C)c1cc2c(O)c(c1)Cc1cc(C(C)(C)C)cc(c1OCC(=O)NCc1ccccn1)Cc1cc(C(C)(C)C)cc(c1O)Cc1cc(C(C)(C)C)cc(c1OCC(=O)NCc1ccccn1)COC2	cell growth or viability, MTT	15 µM, 72 h		inhibition	54%
COc1ccc2nc(Cl)c(-c3nc4cc(C)c(C)cc4[nH]3)cc2c1	cell growth or viability, MTT	48 h		IC50	36.9 µM
CC(C)(C)c1cc2c(O)c(c1)Cc1cc(C(C)(C)C)cc(c1OCC(=O)Nc1ccccn1)Cc1cc(C(C)(C)C)cc(c1O)Cc1cc(C(C)(C)C)cc(c1OCC(=O)Nc1ccccn1)COC2	cell growth or viability, MTT	15 µM, 72 h		inhibition	48%
Clc1nc2ccccc2cc1-c1nc2ccccc2[nH]1	cell growth or viability, MTT	48 h		IC50	> 100 µM
C=C(CC)C(=O)c1ccc(OCC(=O)NCCNC(=O)COc2ccc(C(=O)C(=C)CC)c(Cl)c2Cl)c(Cl)c1Cl	cell growth, CCK-8	72 h		IC10	~1.2 µM
CC(C)(C)c1cc2c(O)c(c1)Cc1cc(C(C)(C)C)cc(c1OCC(=O)Nc1cccc3cccnc13)Cc1cc(C(C)(C)C)cc(c1O)Cc1cc(C(C)(C)C)cc(c1OCC(=O)Nc1cccc3cccnc13)COC2	cell growth or viability, MTT	15 µM, 72 h		inhibition	39%
CC(=O)c1cccc(NC2C(NC(=O)OCc3ccccc3)C(NC(=O)N(C)C)(C(C)O)C(C)(O)C2(O)COC(=O)c2c(C)cccc2O)c1 (stereo not drawn)	cell growth or viability			EC50	12 µM
COc1ccc2nc(Cl)c(-c3nc4cc(Br)ccc4[nH]3)cc2c1	cell growth or viability, MTT	48 h		IC50	32.7 µM

Excerpt of the above:
SMILES	test	conditions	how to read	quantity	result
CC(C)(C)c1cc2c(O)c(c1)Cc1cc(C(C)(C)C)cc(c1OCC(=O)Nc1ccccn1)Cc1cc(C(C)(C)C)cc(c1O)Cc1cc(C(C)(C)C)cc(c1OCC(=O)Nc1ccccn1)COC2	cell growth or viability, MTT	15 µM, 72 h		inhibition	48%
Clc1nc2ccccc2cc1-c1nc2ccccc2[nH]1	cell growth or viability, MTT	48 h		IC50	> 100 µM
